Assay results collected from several papers.
Protocols differ between the studies behind these lines. “And” joins repeats or separate records; there may be more than shown. ± marks the error that the study gave.

CCCCCOc1ccc(-c2ccc(-c3ccc(C(=O)N[C@H]4C[C@@H](O)[C@@H](OCC[N+](C)(C)C)NC(=O)[C@@H]5[C@@H](O)[C@@H](C)CN5C(=O)[C@H]([C@@H](C)O)NC(=O)[C@H]([C@H](O)[C@@H](O)c5ccc(O)cc5)NC(=O)[C@@H]5C[C@@H](O)CN5C(=O)[C@H]([C@@H](C)O)NC4=O)cc3)cc2)cc1  Cmax (adult patients in ICU, plasma; intravenous, 400 mg loading, after first dose, mean): 18600 ng/mL
CCN1[C@@H](C(=O)NC23CCC(C(=O)O)(CC2)CC3)[C@H](c2cccc(Cl)c2F)[C@]2(C(=O)Nc3cc(Cl)ccc32)C12CCCCC2  Lymphocytopenia incidence (patients with advanced solid tumours; oral, dose not given, all doses): 42.9%
C[C@@H]1OC(=O)NN=C1c1ccc(-c2ccc(F)cc2)c(C(F)(F)F)c1  patients with adverse event (phase I trial, measured: Dyspnoea all grades; human patients; 5 mg once daily): 0%
Clc1ccc(Cl)c(-c2cc(Cl)ccc2Cl)c1  organ weight (Sprague Dawley rat, spleen; intraperitoneal, 100 mg/kg): 0.47 g
CC(C)[C@@H]1CC[C@@H](C)C[C@@H]1O  alkaline phosphatase (acute oral toxicity OECD; Swiss albino mice, serum; oral, 1000 mg/kg): 69.5 ± 7.7 U/L
CC(C)Nc1ccnc(Nc2cccc(-c3cccnc3)c2)n1  blood chemistry (measured: Phosphorus; mouse, blood; intraperitoneal, 3 mg/kg): 10.5 mg/dL
C[C@]1(CO)Cc2ncn(-c3ccc(C#N)c(Cl)c3)c2C(=O)O1  Cmax at steady state (healthy Japanese adults, plasma; 3 mg once daily, multiple dose): 197 nM
C=CC(=O)N1CC[C@H](n2nc(C#Cc3cc(OC)cc(OC)c3)c3c(N)ncnc32)C1  decreased appetite, any grade (human patients; oral, dose not given, QD regimen, adverse drug reaction, together with: any phosphate binder): 47.5%
N#Cc1ccc(N2CCN(Cc3ccc(COc4cccc5c4CN([C@H]4CCC(=O)NC4=O)C5=O)cc3)CC2)c(F)c1  peripheral volume (population PK model; human; oral, dose not given, BLQ concentrations excluded): 255 L
CC(C)C[C@H](NC(=O)[C@H](CCCCN)NC(=O)OCC1c2ccccc2-c2ccccc21)C(=O)N[C@H](C(=O)N[C@@H](Cc1ccccc1)C(=O)N[C@@H](Cc1ccccc1)C(=O)N[C@@H](CCCCN)C(=O)NCC(=O)N[C@@H](Cc1ccccc1)C(=O)N[C@@H](C)C(=O)N[C@@H](Cc1c[nH]c2ccccc12)C(=O)N[C@@H](CC(N)=O)C(=O)N[C@H](C(=O)N[C@H]1CSSC[C@@H](C(=O)N[C@@H](Cc2c[nH]cn2)C(=O)N[C@@H](CCCNC(=N)N)C(=O)N[C@@H](CCCNC(=N)N)C(=O)N[C@@H](C)C(=O)N[C@@H](CC(N)=O)C(N)=O)NC(=O)[C@H](C(C)C)NC(=O)[C@H](CCCNC(=N)N)NC(=O)[C@H](C(C)C)NC(=O)CNC(=O)[C@H](CC(N)=O)NC(=O)[C@H](CCCNC(=N)N)NC(=O)[C@H](Cc2ccc(O)cc2)NC(=O)[C@H](C(C)C)NC1=O)C(C)C)C(C)C  globulin (ICR mouse, blood; intramammary, 10 mg/kg, day 5, 3 d dosing): 18.91 ± 0.18 g/L
CN1CC[C@@H](c2c(O)cc(O)c3c(=O)cc(-c4ccc(C(F)(F)F)cc4Cl)oc23)[C@@H]1CO  patients with adverse event (measured: Neutropenia; relapsed B-cell malignancies; oral, 150 mg, grade 3-4, intermittent dosing): 0%
Cn1cncc1-c1c(F)cncc1NC(=O)c1c(N)nn2cc(F)cnc12  grade ≥3 hyperkalaemia incidence (human patients; oral, 180 mg once daily): 0%
CC(C)(O/N=C(\C(=O)N[C@@H]1C(=O)N2C(C(=O)[O-])=C(C[n+]3ccccc3)CS[C@H]12)c1csc(N)n1)C(=O)O  clearance (population PK base model; healthy human, plasma; intravenous, typical value): 118 mL/min
O=C(O)CCCOc1ccc(F)cc1-c1cc(-c2ccccc2C(F)(F)F)n(-c2ccccc2)n1  organ weight (male Crl:CD(SD) rats, spleen; intravenous, 25 µg/kg, 14 d): 0.71 ± 0.09 g
C[C@@H](NC(=O)N1C(=O)[C@H](Cc2ccnc(N)c2)[C@H]1C(=O)O)C1CCCCC1  incidence of elevated blood uric acid (healthy adult Chinese volunteers; continuous intravenous infusion, 0.3 mg/kg/h, 5-day infusion, CTCAE 5.0 grading): 0%
COc1ccc(-c2c(-c3ccc(C#N)c(F)c3)nc(N3CCC(N)CC3)n(C)c2=O)cc1F  serious TEAE incidence (measured: upper respiratory tract infection; human patients; oral, dose not given, dose escalation): 0%
Cn1c(-c2ccc(C(N)=O)cc2F)nnc1C(C)(C)Oc1c(F)cc(Cl)cc1F  musculoskeletal disorder TEAE (human; oral, 3 mg, single ascending dose): 0%
C=CC(=O)Nc1cc(Nc2nccc(Nc3cc(Cl)c(F)cc3C(C)(C)O)n2)c(OC)cc1N1CC[C@@H](N(C)C)C1  patients with amylase increased (human patients; oral, 300 mg, treatment-emergent adverse events): 15.7%
CC[C@H](C)[C@H](NC(=O)[C@H](Cc1c[nH]cn1)NC(=O)[C@H](CO)NC(=O)CNC(=O)[C@H](CCC(=O)O)NC(=O)[C@H](CCSC)NC(=O)[C@@H](NC(=O)[C@H](Cc1c[nH]cn1)NC(=O)[C@H](CO)NC(=O)[C@H](CCSC)NC(=O)[C@H](C)NC(=O)[C@H](CC(N)=O)NC(C)=O)C(C)C)C(=O)N[C@@H](CC(N)=O)C(=O)N[C@@H](Cc1c[nH]c2ccccc12)C(=O)N[C@@H](CC(=O)O)C(=O)N[C@@H](C)C(N)=O  random coil content (circular dichroism; water with 5% DMSO; 500 µM, 18 °C): 65%
C=CCNc1c(O)cc2c(O)c1C[C@@H](C)C[C@H](OC)[C@H](O)[C@@H](C)/C=C(\C)[C@H](OC(N)=O)[C@@H](OC)/C=C\C=C(/C)C(=O)N2  treatment-emergent adverse events (measured: first-degree AV block; patients with unresectable or metastatic GIST, STS or other tumours; intravenous, 400 mg/m^2): 16%
NC(=O)[C@H]1CCN(c2ncnc(N)c2F)C[C@@H]1N1CCC[C@@H](Nc2cc(Cl)cc(C(F)(F)F)c2)C1=O  grade ≥3 platelet decrease (B-cell malignancy patients; oral, 82 mg twice daily, dose): 14%
[O-][S+]1CCc2nc(N3CCC(c4ncc(Cl)cn4)CC3)nc(NC3(CO)CCC3)c21 (stereo not shown)  adverse event incidence (measured: oral hypoaesthesia; healthy male humans; 12 mg twice daily): 12.5%
O=C(Nc1ccccc1)C1CCN(C(=O)Oc2cccnc2)CC1  Vascular disorders adverse events (healthy women; oral, 20 mg, 7 days): 7.1%
O[C@H]1CCCN[C@@H]1CCCn1cnc2c(Cl)c(Cl)ccc21  Cmax at steady state (healthy CYP2D6 EM and UM, plasma; oral, 150 mg multiple doses): 229 ng/mL
COc1cccc2c1CCCC2CCCN1CCN(C2CCCCC2)CC1 (stereo not shown)  half-life (CD-1 mouse, male, lung; intraperitoneal, 30 mg/kg): 3.1 h
CCc1ccc(CC/C=C/c2ccc3c(c2)C(=O)CC3)cc1  AST serum activity (Sprague-Dawley rat, male; oral, 120 mg/kg/day, 14 days): 137 U/L
CC(C)(c1ccccc1)c1cc(-n2nc3ccccc3n2)c(O)c(C(C)(C)c2ccccc2)c1  mean daily dermal uptake (exposure assessment; human, age 21-60 years; foundation): 0.48 ng/kg body weight/day
COc1cc2c(Oc3ccc4[nH]c(C)cc4c3F)ccnc2cc1OCC1(N)CC1  grade 1-2 QTc prolongation (paediatric refractory sarcoma patients; 12 mg): 9.1%
CC[C@H](C)[C@H](NC(=O)[C@H](Cc1ccccc1)NC(=O)[C@H](CCC(=O)O)NC(=O)[C@H](CCCNC(=N)N)NC(=O)[C@H](C)NC(=O)[C@H](C)NC(=O)[C@H](CCC(N)=O)NC(=O)[C@H](CCC(=O)O)NC(=O)[C@H](CCC(=O)O)NC(=O)[C@H](CC(C)C)NC(=O)[C@H](Cc1ccc(O)cc1)NC(=O)[C@H](CO)NC(=O)[C@H](CO)NC(=O)[C@@H](NC(=O)[C@H](CC(=O)O)NC(=O)[C@H](CO)NC(=O)[C@@H](NC(=O)[C@H](Cc1ccccc1)NC(=O)[C@@H](NC(=O)CNC(=O)[C@H](CCC(=O)O)NC(=O)[C@H](C)NC(=O)CCc1cnc[nH]1)[C@@H](C)O)[C@@H](C)O)C(C)C)C(=O)N[C@@H](C)C(=O)N[C@@H](Cc1c[nH]c2ccccc12)C(=O)N[C@@H](CC(C)C)C(=O)N[C@H](C(=O)N[C@@H](CCCNC(=N)N)C(=O)NCC(=O)N[C@@H](CCCNC(=N)N)C(=O)N[C@@H](CCCCNC(=O)COCCOCCNC(=O)COCCOCCNC(=O)CC[C@H](NC(=O)CCCCCCCCCCCCCCCCC(=O)O)C(=O)O)C(=O)NCC(=O)NCC(=O)N[C@@H](CO)C(=O)N[C@@H](CCCCNC(=O)[C@H](CCCCNC(=O)[C@H](CCCCNc1c(NCCCCCN(O)C(=O)CCC(=O)NCCCCCN(O)C(=O)CCC(=O)NCCCCCN(O)C(C)=O)c(=O)c1=O)Nc1c(NCCCCCN(O)C(=O)CCC(=O)NCCCCCN(O)C(=O)CCC(=O)NCCCCCN(O)C(C)=O)c(=O)c1=O)NC(=O)[C@H](CCCCNc1c(NCCCCCN(O)C(=O)CCC(=O)NCCCCCN(O)C(=O)CCC(=O)NCCCCCN(O)C(C)=O)c(=O)c1=O)Nc1c(NCCCCCN(O)C(=O)CCC(=O)NCCCCCN(O)C(=O)CCC(=O)NCCCCCN(O)C(C)=O)c(=O)c1=O)C(=O)O)C(C)C [zirconium-89 labelled]  tissue uptake (ex vivo gamma counting; male Sprague-Dawley rats, brain; intravenous, 1 nmol, 24 h): 0.023 %ID/g
CO[C@H]1C[C@@H]2CC[C@@H](C)[C@@](O)(O2)C(=O)C(=O)N2CCCC[C@H]2C(=O)O[C@H]([C@H](C)C[C@@H]2CC[C@@H](OC(=O)NCCOCCOCCOCCOCCOCCOCCOCCOCCC(=O)N3CCc4cc(Cn5nc(-c6ccc7oc(N)nc7c6)c6c(N)ncnc65)ccc4C3)[C@H](OC)C2)C[C@@H](O)[C@H](C)/C=C(\C)[C@@H](O)[C@@H](OC)C(=O)[C@H](C)C[C@H](C)/C=C/C=C/C=C/1C  TRAE incidence (phase 1 dose escalation, measured: mucositis; advanced solid tumour patients; intravenous, 16 mg weekly, grade ≥3): 25%
CNC(=O)c1cc(Oc2ccc(NC(=O)Nc3cc(C(C)(C)C)nn3-c3ccc4ncccc4c3)c(F)c2)ccn1  related SAE (left ventricular dysfunction, NCI CTC v3.0; human patients; oral, all dose levels): 2%
COc1ccc(N=Nc2ccc3[nH]cc(CCNCc4cccc(OC)c4)c3c2)cc1  cis isomer fraction (HPLC; DMSO:PBS 1:1; pH 7.4, after 385 nm irradiation): 94%
COc1ncccc1-c1cnn2ccc(N3CCN(C(=O)OC(C)C)CC3)nc12  drug concentration (rat, CCI cold allodynia model, plasma; oral, 10 mg/kg, 240 min): 1090 nM
O=C(O)CNCP(=O)(O)O  milk fat partition ratio (cow whole milk; 20 nM; relative to: milk fat over skim milk): 0.16
CC(=O)c1c(C)c2cnc(Nc3ccc(C4CCN(CCS(C)(=O)=O)CC4)cn3)nc2n(C2CCCC2)c1=O  Vd (human, plasma; oral, 25 mg once daily, day 1, single dose): 578 L
CN1CCN(S(=O)(=O)c2cc([N+](=O)[O-])ccc2N(CCOS(C)(=O)=O)CCOS(C)(=O)=O)CC1  hemoglobin (NOD/SCID mouse, naive, blood; intraperitoneal, 18.8 mg/kg, week 1): 160 g/L and 172 g/L and 154 g/L
CC[C@H](C)[C@H](NC(=O)[C@@H](NC(=O)[C@H](Cc1ccccc1)NC(=O)CNC(=O)[C@H](CCC(N)=O)NC(=O)[C@H](CCCCN)NC(=O)[C@H](C)N)C(C)C)C(=O)N[C@@H](Cc1ccc(O)cc1)C(=O)N[C@@H](CCCNC(=N)N)C(=O)N[C@H](C(=O)N[C@@H](CCCNC(=N)N)C(=O)N[C@H](C(=O)N[C@@H](CCCNC(=N)N)C(=O)N[C@@H](CCCNC(=N)N)C(=O)NCC(=O)N[C@@H](CC(N)=O)C(=O)N[C@@H](CCCNC(=N)N)C(=O)N[C@@H](CCCCN)C(N)=O)C(C)C)C(C)C  elution acetonitrile content (reversed-phase UPLC; C18 column, TFA): 37.4%
